Assay results collected from several papers.
Protocols differ between the studies behind these lines. Numbers after ± are the reported error.
OPRD1 with Gi1: Delta-type opioid receptor, with Gi1 (OPRD1, Homo sapiens, UniProt P41143)
CNR1: Cannabinoid receptor 1 (CNR1, Homo sapiens, UniProt P21554)
dncV: dncV (Vibrio cholerae, UniProt Q9KVG7)
VHL with elongin B/C: von Hippel-Lindau disease tumor suppressor, with elongin B/C (VHL, Homo sapiens, UniProt P40337)
CNR2 I110L: Cannabinoid receptor 2 (CNR2, Homo sapiens, UniProt P34972, I110L)
Nucleoprotein monomeric: Nucleoprotein, monomeric (Influenza A virus, UniProt P15682)
HSP90AA1: Heat shock protein HSP 90-alpha (HSP90AA1, Homo sapiens, UniProt P07900)
Slc6a3: Sodium-dependent dopamine transporter (Slc6a3, Rattus norvegicus, UniProt P23977)

CCCCCc1cc(O)c2c(c1)OC(C)(C)C1CCC(C)=CC21 (single isomer, unassigned; (-)) — inhibition (UDP-glucuronosyltransferase 1A1 (UGT1A1, Homo sapiens, UniProt P22309); estradiol glucuronidation; recombinant microsomes; 10 or 100 µM, added: β-estradiol): no inhibition
N=C(N)NCCCCCCCN1CC[C@]23c4c5ccc(O)c4O[C@H]2c2nc4ccccc4cc2C[C@@]3(O)[C@H]1C5 — Emax (OPRD1 with Gi1; human cells): 78 ± 2%
CCCCCn1cc(C(=O)c2cccc3c2CC(C)(C)C3)c2ccccc21 — Emax (CNR1; Gαi1 engagement, agonist, BRET; HEK293T; baseline: reference agonist): 116 ± 4.9%
Nc1nc2c([C@@H]3O[C@@H]4COP(=O)(O)O[C@H]5[C@@H](O)[C@H](c6scc7c(=O)[nH]c(N)nc67)O[C@@H]5COP(=O)(O)O[C@H]4[C@H]3O)scc2c(=O)[nH]1 — rate constant k1 (dncV; substrate, HPLC): 0.308 ± 0.03 M⁻¹ s⁻¹
Cn1cnc2cc(-c3noc(-c4cccc(Cl)c4)n3)ccc21 — inhibition (VHL with elongin B/C; binding, TR-FRET; 10 µM, 90 min, added: BODIPY FL VH032): 33.1%
NCCCCCCCCN1CCC23c4c5ccc(O)c4OC2c2nc4ccccc4cc2CC3(O)C1C5 (centres unmarked) — Emax (Delta-type opioid receptor, with β-arrestin2 (OPRD1, Homo sapiens, UniProt P41143); human cells): 46 ± 2%
CC(=O)N[C@@H](CCC(=O)O)C(=O)N[C@@H](CCC(N)=O)C(=O)N[C@H](C(=O)N[C@@H](CCC(=O)O)C(=O)N[C@@H](CC(C)C)C(=O)N[C@@H](CCC(=O)O)C(=O)N[C@@H](Cc1ccccc1)C(=O)N[C@@H](CC(=O)O)C(=O)O)C(C)C — deuterium uptake (Beta sliding clamp (Escherichia coli, UniProt P0A988); HDX-MS; concentration not given, over 4 h, 37 °C): 173 Da
Nc1nc2c([C@@H]3O[C@H](COP(=O)(O)OP(=O)(O)OP(=O)(O)O)[C@@H](O)[C@H]3O)snc2c(=O)[nH]1 — rate constant k1 (dncV; first phosphodiester formation, substrate, HPLC; 500 µM, 37 °C): 1.26 ± 0.07 M⁻¹ s⁻¹
Cc1sc2c(c1C)C(c1ccc(Cl)cc1)=N[C@@H](CC(=O)OC(C)(C)C)c1nnc(C)n1-2 — inhibition (VHL with elongin B/C; TR-FRET; 2.1 pM to 30 µM, 90 min): inactive
CCCCCn1cc(C(=O)c2cccc3ccccc23)c2ccccc21 — Emax (CNR2 I110L; Gαi1 engagement, agonist, BRET; baseline: reference agonist at wild-type CB2): 58.3 ± 5.9%
CCCCCc1cc(O)c2c(c1)OC(C)(C)c1cc(O)c(C)cc1-2 — Ki' (Sucrase-isomaltase, intestinal (Si, Rattus norvegicus, UniProt P23739); inhibitor): 122 µM
CCCCCn1cc(C(=O)Cc2ccccc2OC)c2ccccc21 — association constant (CNR1; binding, surface plasmon resonance; 50 µM): 1.53e+11 M⁻¹
Nc1nc2c([C@@H]3O[C@@H]4COP(=O)(O)O[C@H]5[C@@H](O)[C@H](c6snc7c(=O)[nH]c(N)nc67)O[C@@H]5COP(=O)(O)O[C@H]4[C@H]3O)snc2c(=O)[nH]1 — intermediate degradation rate k3 (dncV; substrate, HPLC; 500 µM, 37 °C): 0.00013 ± 1e-05 s⁻¹
CC1=C[C@H]2c3c(O)cc(CCc4ccccc4)cc3OC(C)(C)[C@@H]2CC1 — Emax (CNR1; GTPγS binding, agonist, radiometric; cell membranes): 142%
COc1ccc2cc(-c3c(C(=O)O)cccc3C(=O)O)ccc2c1 — Tm (Nucleoprotein monomeric; binder, thermal shift): 46 ± 1 °C
O=C1CC(=O)N(c2ccccc2)c2cc(Cl)ccc2N1 — Emax (Gabrg2/Gabra1, with β2 subunit (Rattus norvegicus, UniProt P18508+P62813); positive allosteric modulator, whole-cell patch clamp; HEK293; α1β2γ2 subunits, added: GABA at EC10): 143 ± 13%
CCC(C)n1c(C(=O)Nc2cnc(C(=O)NC)n(CC(C)C)c2=O)ncc(NC(=O)c2ncc(NC(=O)c3ccccc3)c(=O)n2Cc2ccc(OC)cc2)c1=O (centres unmarked) — inhibition (HSP90AA1; 50 µM): 39.9%
CCCCCCCCN1CCC23c4c5ccc(O)c4OC2c2nc4ccccc4cc2CC3(O)C1C5 (centres unmarked) — Emax (Delta-type opioid receptor, with β-arrestin1 (OPRD1, Homo sapiens, UniProt P41143); human cells): 23%
NC1=NN=Cc2ccccc2[O][V](=[O])[O]1.c1cnc2c(c1)ccc1cccnc12 — selectivity ratio (Tyrosine-protein phosphatase non-receptor type 22 (PTPN22, Homo sapiens, UniProt Q9Y2R2); baseline: IC50 LYP over IC50 YopH): 68.2
COc1ccc2cc(C(CC(=O)O)CC(=O)O)ccc2c1 — Tm shift (Nucleoprotein monomeric; baseline: free NP): 5 °C
CCCCCn1c2ccccc2c2cc(C(=O)c3cccc4ccccc34)ccc21 — Emax (CNR1; GTPγS binding, agonist; cell membranes): 107%
N=C(N)NCCCCN1CC[C@]23c4c5ccc(O)c4O[C@H]2c2[nH]c4ccccc4c2C[C@@]3(O)[C@H]1C5 — Emax (OPRD1 with Gi1; human cells): 80 ± 5%
CNC(C)C(=O)c1ccc(Cl)c(Cl)c1 (centres unmarked) — potency ratio (Slc6a3; dopamine release, releaser; rat brain synaptosomes; added: [3H]dopamine; baseline: compound over methamphetamine): 3.6 fold
COC(=O)c1ccc(-n2c(C)cc(/C=C3/C(=O)NC(=S)N(c4cccc(Cl)c4Cl)C3=O)c2C)c(C)c1 — activity class (Nuclear receptor ROR-gamma (RORC, Homo sapiens, UniProt P51449); cell-based; concentration not given): active
CNC(C)C(=O)c1ccc(F)c(F)c1 (centres unmarked) — potency ratio (Slc6a3; dopamine release, releaser; rat brain synaptosomes; added: [3H]dopamine; baseline: compound over methamphetamine): 4.5 fold
CCOC(=O)C1C(OC(c2ccc(Cl)cc2)c2ccc(Cl)cc2)CC2CCC1N2C (single isomer, unassigned) — Ki (Alpha-1B adrenergic receptor (Adra1b, Rattus norvegicus, UniProt P15823); binding, radioligand displacement; rat liver; inactive if below 75% at 10000 nM, added: [3H]prazosin): inactive
CCC(=O)N1CCc2cc(-c3ccc(C(=O)NC(C)Cc4ccco4)cc3)ccc21 (centres unmarked) — inhibition (VHL with elongin B/C; binding, TR-FRET; 10 µM, 90 min, added: BODIPY FL VH032): 31.1%
CCC(C)n1c(C(=O)Nc2cnc(C(=O)NC)n(CC(C)C)c2=O)ncc(NC(=O)c2ncc(NC(=O)c3ccccc3)c(=O)n2CCc2ccc(OCc3ccccc3)cc2)c1=O (centres unmarked) — inhibition (HSP90AA1; 50 µM): 55.2%
CCCCCn1cc(C(=O)c2ccc3c(c2)CC(C)(C)C3)c2ccccc21 — Emax (CNR2 I110L; Gαi1 engagement, agonist, BRET; baseline: reference agonist at wild-type CB2): 74.2 ± 7%
OP(O)(=S)O[C@H]1[C@H](OP(O)(O)=S)[C@@H](OP(O)(O)=S)[C@H](OP(O)(O)=S)[C@@H](OP(O)(O)=S)[C@H]1OP(O)(O)=S — koff (Toxin B (tcdB, Clostridioides difficile, UniProt P18177); binding, ITC): 0.00691 s⁻¹
C#C[C@@]12CC[C@H]([C@H](C)CCCC(C)C)[C@@]1(C)CC[C@H]1C2=CCC2C(C)(C)[C@@H](O)CC[C@@]21C (some centres unmarked) — maximal high-spin heme content (Lanosterol 14-alpha-demethylase (Trypanosoma brucei brucei, UniProt Q385E8); spectral binding; Trypanosoma brucei; type I spin shift): 35 to 40%
CCC(C)n1c(C(=O)Nc2cnc(C(=O)NC)n(CC(C)C)c2=O)ncc(NC(=O)c2ncc(NC(=O)c3ccccc3)c(=O)n2Cc2ccc(OCc3ccccc3)cc2)c1=O (centres unmarked) — inhibition (HSP90AA1; 50 µM): 41.8%

For quick reference, copied from above:
CNC(C)C(=O)c1ccc(F)c(F)c1 (centres unmarked) — potency ratio (Slc6a3; dopamine release, releaser; rat brain synaptosomes; added: [3H]dopamine; baseline: compound over methamphetamine): 4.5 fold
CCOC(=O)C1C(OC(c2ccc(Cl)cc2)c2ccc(Cl)cc2)CC2CCC1N2C (single isomer, unassigned) — Ki (Alpha-1B adrenergic receptor (Adra1b, Rattus norvegicus, UniProt P15823); binding, radioligand displacement; rat liver; inactive if below 75% at 10000 nM, added: [3H]prazosin): inactive
